Measured values gathered from unrelated publications.
Protocols differ between the studies behind these lines.
Effect on: metabolic stability
Host: mouse

| Structure (SMILES) | test | system | conditions | half-life [min] |
| --- | --- | --- | --- | --- |
| CN(CC(=O)N(Cc1ccc(C2CCCCC2)cc1)c1ccc(C(=O)O)cc1)S(=O)(=O)c1c(F)c(F)c(F)c(F)c1F | – | hepatocytes | – | 10.1 |
| C#Cc1c(F)ccc2cc(O)cc(-c3ncc4c(N5CC6CCC(C5)N6C(=O)OCc5ccc(NC(=O)OCCCC)cc5)nc(OC[C@@]56CCCN5C[C@H](F)C6)nc4c3F)c12 | – | liver microsomes | 1 µM, pH 7.4 | 40.3 |
| Cc1cc(=O)oc2cc(NC(=O)OCc3cc(C(C)C)c(N=[N+]=[N-])c(C(C)C)c3)ccc12 | – | liver microsomes | 10 µM | 22.8 |
| N#Cc1ccc(NC(=O)c2cccnc2)cc1Cl | – | liver microsomes | – | 11.7 |
| COc1cc(-c2ccc3oc(-c4ccsc4)c(C#CC4(O)CCCCC4)c3c2)cc(OC)c1OC | – | liver microsomes | – | > 30 |
| C#Cc1c(F)ccc2cc(O)cc(-c3ncc4c(N5CC6CCC(C5)N6C(=O)OCc5ccc(OC(=O)CCCC)cc5)nc(OC[C@@]56CCCN5C[C@H](F)C6)nc4c3F)c12 | – | liver microsomes | 1 µM, pH 7.4 | 0.61 |
| COc1ccc(-c2ccc3oc(-c4ccc(OC)cc4)c(C#CC4(O)CCCCC4)c3c2)cc1 | – | liver microsomes | – | > 30 |
| CC[C@H](C)[C@H](N)C(=O)N[C@@H](CO)C(=O)N[C@@H](Cc1ccc(O)cc1)C(=O)NCC(=O)NCC(=O)N[C@@H](C)C(=O)N[C@@H](CC(=O)O)C(=O)N[C@@H](Cc1ccc(O)cc1)C(=O)N[C@@H](CCCCN)C(=O)O | HPLC | brain homogenate | 500 µM | 100 |
| CNC(=O)C1CCN(c2ccccc2NC(=O)c2ccc(-c3cc(O)ccc3C)c(C)n2)CC1 | – | liver microsomes | 2 µM | 9 |
| C#Cc1c(F)ccc2cc(O)cc(-c3ncc4c(N5CC6CCC(C5)N6C(=O)OC(C)OC(=O)CCCC)nc(OC[C@@]56CCCN5C[C@H](F)C6)nc4c3F)c12 (some centres unmarked) | – | liver microsomes | 1 µM, pH 7.4 | 0.73 |
| C/C(=N\OCCCN1CCCCC1)c1ccc(C(F)(F)F)cc1 | – | liver microsomes | – | 37.6 |

Some of these lines once more:
| Structure (SMILES) | test | system | conditions | half-life [min] |
| --- | --- | --- | --- | --- |
| C#Cc1c(F)ccc2cc(O)cc(-c3ncc4c(N5CC6CCC(C5)N6C(=O)OC(C)OC(=O)CCCC)nc(OC[C@@]56CCCN5C[C@H](F)C6)nc4c3F)c12 (some centres unmarked) | – | liver microsomes | 1 µM, pH 7.4 | 0.73 |
